Measured values from different studies.
Numbered parts are unrelated; each lists some results of a single study. Substitutions count along the parent as printed.
Sequence of UniProt O43781 (whole entry, looked up): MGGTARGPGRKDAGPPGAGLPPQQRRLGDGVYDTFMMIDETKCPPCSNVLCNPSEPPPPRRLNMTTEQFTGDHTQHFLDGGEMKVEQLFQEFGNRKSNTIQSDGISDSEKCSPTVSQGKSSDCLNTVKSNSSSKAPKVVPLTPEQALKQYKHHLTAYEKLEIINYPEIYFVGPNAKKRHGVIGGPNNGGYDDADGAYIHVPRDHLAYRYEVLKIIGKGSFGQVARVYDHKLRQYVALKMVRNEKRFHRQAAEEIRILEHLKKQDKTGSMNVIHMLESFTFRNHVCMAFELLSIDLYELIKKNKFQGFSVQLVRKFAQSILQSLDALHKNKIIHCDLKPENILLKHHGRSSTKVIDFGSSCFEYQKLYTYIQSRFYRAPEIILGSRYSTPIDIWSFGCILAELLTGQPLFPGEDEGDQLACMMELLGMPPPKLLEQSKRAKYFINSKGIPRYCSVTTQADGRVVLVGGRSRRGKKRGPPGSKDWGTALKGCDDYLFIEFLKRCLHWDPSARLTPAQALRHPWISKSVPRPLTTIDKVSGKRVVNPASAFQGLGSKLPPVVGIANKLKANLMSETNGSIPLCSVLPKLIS

Block 1 — target: CCNA1, cyclin fold, Cln2 fusion (human); technique: yeast growth competition, sequencing; medium: yeast; notes: weak parent motif; relative to: not given; reading: higher = stronger binding; measurement: normalised enrichment score
Parent: SLBP docking peptide (human); ARYKRKLLINDFG; partner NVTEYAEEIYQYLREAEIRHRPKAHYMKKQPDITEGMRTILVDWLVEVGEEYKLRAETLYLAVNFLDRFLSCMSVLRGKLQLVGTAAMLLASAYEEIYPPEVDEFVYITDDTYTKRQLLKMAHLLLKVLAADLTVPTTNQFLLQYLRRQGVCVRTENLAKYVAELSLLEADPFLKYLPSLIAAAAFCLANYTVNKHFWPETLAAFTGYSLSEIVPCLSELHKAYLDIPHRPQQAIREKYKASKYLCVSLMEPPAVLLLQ
A1R: 0.208
R5A: 0.527
I9D: -0.000246
I9V: 0.0546
Y3A: 0.912
R2S: -0.000287
R2G: 0.435
N10R: 0.119

Block 2 — technique: protein binding microarray; molecule type: double-stranded DNA, one strand shown; medium: in vitro; tested at: not given; relative to: not given; reading: higher = stronger binding; measurement: E-score
Target: Histone acetyltransferase KAT6A, both winged helices, GST fusion (KAT6A, Homo sapiens, UniProt Q92794, residues 1-181)
Notes: 8-mer, flanks averaged, mean of 2 arrays, mostly near background
Target sequence (chain): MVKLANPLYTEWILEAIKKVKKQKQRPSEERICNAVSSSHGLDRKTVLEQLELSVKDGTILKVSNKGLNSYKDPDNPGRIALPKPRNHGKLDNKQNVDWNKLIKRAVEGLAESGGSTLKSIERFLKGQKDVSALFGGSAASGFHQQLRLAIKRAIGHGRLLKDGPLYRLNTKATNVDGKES
AGGGACCA: -0.108
GTGAGGTA: -0.203
ACGCGCAC: 0.255
CAGATGGG: -0.193
AATAGACG: 0.0382
ACGTCAAG: -0.124
CTGGATAC: -0.0688
ATAAAATA: 0.0047

Block 3 — technique: RNA Bind-n-Seq; molecule type: RNA; medium: in vitro; tested at: 365 nM; relative to: no-protein control; reading: higher = stronger binding; measurement: RBNS enrichment (R)
Target: RNA binding protein fox-1 homolog 2, RRM domain, GST-SBP tag (RBFOX2, Homo sapiens, UniProt O43251-10, residues 100-194)
Notes: natural RNA segment, single round, ends assumed
Shared flanks, not repeated: GGGAGUUCUACAGUCCGACGAUC … UGGAAUUCUCGGGUGCCAA
Construct (chain): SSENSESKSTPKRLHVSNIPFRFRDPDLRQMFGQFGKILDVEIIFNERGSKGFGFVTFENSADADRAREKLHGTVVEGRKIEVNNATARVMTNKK
GGUGUGUUCUGUGAUAAUGAAAAGCAUCAGAAAAGCUUUUGUACUUUGUGGUUUCCUCUAUUUUGAAUUUUUUGAUCAAAAAACUGAUUAGCAGAAUAUAGUUUGGAGUU: 0.868
UAAAGAUGCUUUAUAUGUAGAAAUUGUUUCAAAUCAUACUCUAACCCUUAGUGAGGGCAAAGUGUAGUUGGUAGAAGAAAUUGCUAAAUACCUAUCUAAUGUGCUAUGUU: 0.776
UAAAUCACUUAUAGCUAUAUUUUACUACAAAAAUUCUGUAUAAAGAUAUAUUUAAAUAUUUUAGAGAAAUUUAAGUUACUCCUUAUGAAAUGUUUAAUUUCAGUUACUGU: 0.631
GAGCGAGGCUACUCACUGGUAUCAGGUGGUACUGACAACCACCUGGUGCUGGUGGACCUGCGGCCCAAGGGCCUGGAUGGAGCUCGGGCUGAGCGGGUGCUAGAGCUUGU: 0.608
CCUAAGGAACAGCAUUUCUCUGCUCCUCAGUCAACCCCCGUAGCCUAGAGCAGUGUCACAAGCUUCAGUAAGGCCAGUCAGCUGGAAGUCAGUCUACCGUAUAGUAACAC: 0.269
AUGUUUAAAGAUGUAAUAUUUUGUACAAGACACACUGGAGAACAAAGGGAACUCAAAACUCUUCCACAUUCUUCCCGAGGAAAUCGACGACGUCCAUCCGUCCCACAGAG: 0.283
CAGUCAGUACAAAUGGAAAAGGUCCCACACUGGAACUGGCCGGAACUGGAAGCAGGGGAGGUACGAGAGAACUUUUACCCUGUGGUCCUCAACCUGAGACCAAUAUGCCA: 0.468
ACCACAUGGUGGUUCCCAACCAUCUGUAAUGGGAUCUGAUGCCCUCUUCUGGUGUGUCUGAAGACAACAGUAGUGUACUCACGUAUAUGAAAUAAAUAAAUCUUAAAAAA: 0.44

Other studies, line by line
COc1ccc(COc2ccc(Cc3cnc(N)nc3N)cc2OC)cc1  remaining activity (Dual specificity tyrosine-phosphorylation-regulated kinase 3 (DYRK3, Homo sapiens, UniProt O43781); enzyme activity, inhibitor; 0.5 µM; relative to: control): 108%
